Measurements of several laboratories.
Protocols differ between the studies behind these lines. ± gives the spread as reported.

The EC50 of `COc1ccc(-c2cc(C(=O)Nc3cccc(Cl)c3C)no2)cc1O` is reported as greater than 100 µM (membrane potential, rhodamine uptake; isolated mouse liver mitochondria).
With `COc1ccc(C2CC(c3ccc(C)cc3)=Nc3ccccc3S2)cc1` (stereo not drawn) the body weight was 186 ± 4.19 g (Wistar rat, STZ-induced diabetes; oral, 10 mg/kg once daily, day 14).
Under “off-target molecular weight”, `O=C(NC1CCCCC1)C(c1cncs1)N(C(=O)CCl)c1ccc(F)cc1` (racemic) is recorded as 38 kDa (competitive ABPP; MDA-MB-435 soluble proteome; 5 µM, with: CA-Rh probe).
With `CC(C)[C@H](NC(=O)CN)C(=O)N[C@@H](CCCCN)C(=O)NCC(=O)N[C@@H](CC(=O)O)C(=O)N[C@@H](CCCCN)C(=O)NCC(=O)N[C@@H](CC(N)=O)C(=O)N1CCC[C@H]1C(=O)NCC(=O)N[C@@H](Cc1c[nH]c2ccccc12)C(=O)N1CCC[C@H]1C(=O)NCC(=O)N[C@@H](C)C(=O)N1CCC[C@H]1C(=O)O` the spreading cells was 0% (SCC-9 squamous cell carcinoma, human; 100 µg/mL coating, peptide-coated plates).
With `Cc1cnc(C(=O)N[C@@H](Cc2cn(Cc3ccccc3)cn2)C(=O)N2CCC[C@H]2C(N)=O)cn1` the sleeping time was 51.1 ± 8.5 min (Swiss albino mice; iv, 10 µmol/kg, with: pentobarbital 50 mg/kg ip).
`C=C(c1cc(F)c(C(=O)O)c(F)c1)c1cc2c(cc1C)C(C)(C)CCC2(C)C` — result for “log2 fold change”: 1 (RNA sequencing, measured: Cyp26a1 mRNA; rat, brain; dose not given, 24 h, single dose; relative to: vehicle).
For `COc1ccc2c(c1OC)C(C(Cl)(Cl)Cl)N1CCc3cc4c(cc3C1=C2)OCO4` (stereo not drawn), the AST activity was 62.1 ± 2.01 U/L (rat, STZ-induced diabetic, serum; oral, 12 mg/kg, day 28).
For `CC/C=C\C/C=C\C/C=C\C/C=C\C/C=C\CCCCOC(CC)C(=O)O` (stereo not drawn), “hepatic collagen change” read -32% (APOE*3Leiden.CETP mice, high-fat/cholesterol diet; dose not given, 20 weeks; relative to: control).
For `CCOP(=O)(CC(=O)Nc1ccc(S(=O)(=O)N(CC(N)=O)c2ccc(N(CC(N)=O)S(=O)(=O)c3ccc(OC)cc3)c3ccccc23)cc1)OCC`, “HO-1 protein level” read “increased” (Western blot; APP/PS1 mice, hippocampus and frontal cortex; 40 mg/kg; relative to: untreated APP/PS1 mice).
For `Cc1sc2ncn(CC(=O)N3CCCC3)c(=O)c2c1-c1cccc(Br)c1`, “γ3 conductance level area” read 7% (NMDA receptor, mouse; single-channel current, outside-out patch; cortical neurons; 50 µM, with: Ca2+ 0.5 mM).
`C=C(c1ccc(C(=O)O)c(F)c1)c1cc2c(cc1C)C(C)(C)C=CC2(C)C`: “log2 fold change” -0.33 (RNA sequencing, measured: Upp1; rat, brain; dose not given, 24 h; relative to: vehicle).
`Cc1cc(=O)[nH]c2ccc(OCCCC(=O)N3CCN(C)CC3)cc12` — result for “contraction force increase”: 15 ± 3% (rat, isolated spontaneously beating atria; 100 µM; relative to: baseline).
`CN1C[C@H](c2cccc(C(F)(F)F)c2)[C@@H](C(=O)Nc2ccccc2F)C1=O`: herbicidal activity “active” (whole plants; concentration not given).
Under “heart rate change”, `CCOCc1nc(O)c(-c2nnc(Cc3ccc(Cl)cn3)o2)c(O)c1-c1c(OC)cccc1OC` is recorded as -5% (renal hypertensive rat; oral, 0.1 mg/kg twice daily, day 7, trough; relative to: vehicle).
`Cc1c(C)c(C)[c-](C)c1C.O=C1c2cccc[n+]2[Ir]([Cl])[N]1CCCCCCCCCC[P+](c1ccccc1)(c1ccccc1)c1ccc2ccc3cccc4ccc1c2c34.[Br-]` has a yield of 21% (4-hydroxynonenal reduction; PBS/DMSO; 24 h, 37 °C, 1 mol% catalyst, with: excess sodium formate).
With `COc1c2c(cc3oc(CO)cc(=O)c13)O[C@H](C(C)(C)O)C2` the inhibition was 70% (ear edema weight; mouse, xylene ear edema; oral, 4 mg/kg; relative to: vehicle).
`CC[C@H](C)[C@@H]1NC(=O)[C@H](Cc2ccccc2)NC(=O)[C@H](CCC(=O)O)NC(=O)[C@H](CCCNC(=N)N)NC(=O)CNC(=O)[C@@H](NC(=O)[C@H](CC(C)C)NC(=O)[C@H](CCCNC(=N)N)NC(=O)[C@@H](NC(=O)CNC(=O)[C@H](Cc2ccc(O)cc2)NC(=O)[C@@H]2CCCN2C(=O)[C@H](C)NC(=O)[C@H](C)NC(=O)[C@@H](N)CCCNC(=N)N)C(C)C)CSSC[C@@H]2NC(=O)[C@@H](NC(=O)[C@H](CO)NC(=O)[C@H](CO)NC(=O)[C@H](CO)NC(=O)[C@H](CC(C)C)NC(=O)CNC(=O)[C@H](C)NC(=O)[C@H](CC(C)C)NC(=O)[C@@H](NC(=O)[C@@H](N)CC(=O)O)C(C)C)CSSC[C@H](NC(=O)CNC(=O)[C@H](Cc3c[nH]c4ccccc34)NC(=O)[C@H](CCCCN)NC2=O)C(=O)N[C@@H](CO)C(=O)N[C@@H](CCCCN)C(=O)N[C@@H](CO)C(=O)N[C@@H](CCC(=O)O)C(=O)N[C@@H]([C@@H](C)CC)C(=O)N[C@@H](CO)C(=O)N[C@@H](CO)C(=O)N[C@@H](CC(C)C)C(=O)N[C@H](C(=O)O)CSSC[C@@H](C(=O)NCC(=O)NCC(=O)N[C@@H](CO)C(=O)N[C@@H](CCCNC(=N)N)C(=O)N[C@@H](Cc2c[nH]c3ccccc23)C(=O)O)NC(=O)[C@H]([C@@H](C)O)NC(=O)[C@H](Cc2ccccc2)NC(=O)[C@H]([C@@H](C)CC)NC(=O)[C@H](C(C)C)NC(=O)[C@H](C)NC(=O)[C@H](CCCNC(=N)N)NC1=O` — result for “centre time and latency”: “increased” (open field test; female Sprague-Dawley rats; intranasal, 275 µg/kg, 30 min predose; relative to: vehicle).
`C[N+](C)(CI)CCO` — result for platelet aggregation: “no effect” (human platelet-rich plasma; 20 µM, with: ADP 2 µM).
`COc1c2c(cc3oc(C)cc(=O)c13)O[C@H](C(C)(C)O[C@@H]1O[C@H](CO)[C@@H](O)[C@H](O)[C@H]1O)C2` — result for “hot plate latency”: 8.64 ± 1.6 s (analgesic effect; Kunming mouse, female; oral, 4 mg/kg, 0 h, 55 °C, before dosing, 30 s cut-off).
`CC[C@H]1[C@@H](O)[C@@H]2[C@H](CC[C@]3(C)[C@@H]([C@H](C)CCOS(=O)(=O)[O-])CC[C@@H]23)[C@@]2(C)CC[C@@H](O)C[C@@H]12.[Na+]`: “whole-body lean mass” 14.6 ± 0.3 g (EchoMRI; ob/ob NASH mouse model; oral, 3 mg/kg once daily, before treatment, baseline of 8 week study).
`Cc1sc(-c2ccc(C(F)(F)F)cc2)nc1-c1nn[nH]c1C#N`: “HbA1c change reduction” 35% (ZDF rat; 10 mg/kg/day, 6 weeks, with: metformin 100 mg/kg/day; relative to: vehicle).
With `COc1ccc(C2CC(c3ccc(C)cc3)=Nc3ccccc3S2)cc1OC` (stereo not drawn) the body weight was 182 ± 4.66 g (Wistar rat, STZ-induced diabetes; oral, 20 mg/kg once daily, day 28).
Under “stool water increase”, `CN1Cc2c(Cl)cc(Cl)cc2C(c2cccc(S(=O)(=O)NCCOCCOCCOCCNC(=O)C(O)C(O)C(=O)NCCOCCOCCOCCNS(=O)(=O)c3cccc(C4CN(C)Cc5c(Cl)cc(Cl)cc54)c3)c2)C1` (stereo not drawn) is recorded as 56% (Sprague Dawley rat, stool; 10 mg/kg).
`CC(C)c1cnc(-c2cc(Cl)ccc2F)cc1Nc1ccncc1C(=O)NC(CO)CO` has an inhibition of 29% (measured: pSMAD2; MC-38 tumour-bearing mouse, tumour; 10 mg/kg, 0 to 8 h average; relative to: vehicle).
For `C=C(c1ncc(C(=O)O)cn1)c1cc2c(cc1C)C(C)(C)CCC2(C)C`, “log2 fold change” read -1.36 (RNA sequencing, measured: Mta2; rat, brain; dose not given, 24 h; relative to: vehicle).
`COc1ccc2c(c1)c(CC(=O)OCC(=O)OC(C)(C)C)c(C)n2C(=O)c1ccc(Cl)cc1`: “latency of nociceptive response” 13.7 ± 0.97 s (hot plate test; BALB/c mice; 50 mg/kg, 120 min).
For `CCCCCC(O)C=CC1OC2OC(C2F)C1CC=CCCCC(=O)O` (stereo not drawn), the EC50 was 1.58 µM (platelet aggregation, agonist, light transmission aggregometry; human platelet-rich plasma).
`Cn1cnc(C[C@H](NC(=O)c2nccnc2N)C(=O)N2CCC[C@H]2C(N)=O)c1` has a sleeping time of 31.5 ± 6.7 min (Swiss albino mice; iv, 10 µmol/kg, with: pentobarbital 50 mg/kg ip).
`O=S(=O)(c1ccccc1)N(CCc1nnc(S)o1)c1ccc(Cl)cc1` has a protection of 121% (analgesic activity, tail flick test; rat; 200 mg/kg).
`CCCCCCCCCn1cc(C(N)(CO)CO)nn1` — result for “LC3-II and p62 levels”: “decreased” (APP/PS1 mouse, cortex, hippocampus; dose not given; relative to: PBS).
`CCCC1OC2CC3C4CCC5=CC(=O)C=CC5(C)C4C(O)CC3(C)C2(C(=O)COC(=O)CN)O1` (stereo not drawn) — result for “inhibition of ear edema”: 30.7% (mouse, xylene-induced ear edema; intraperitoneal, equivalent to 200 µg/kg budesonide, 1 h before xylene).
For `CN(C)CCCSC(=S)N1CCN(C(=O)/C=C/c2coc3ccccc3c2=O)CC1`, the EC50 was 65.3 ± 7.2 µg/mL (tomato spotted wilt virus; virus inactivation, half-leaf method; Nicotiana glutinosa; tested 31.25 to 500 µg/mL).
With `Cc1cc(O)c(C=O)c2c1C(=O)Oc1c(CO)c(O)c3c(c1O2)C(O)OC3=O` (stereo not drawn) the body weight was 173 ± 5.5 g (rat male, streptozotocin diabetic; 10 mg/kg, 5 weeks).
Under “baseline locomotor activity”, `Cc1cccc(NC(=O)CCN2CCN(C/C=C/c3ccccc3)CC2)c1` is recorded as “no effect” (C57BL/6J mouse; intraperitoneal, 6.25 mg/kg, 0 to 30 min).
`CC(=O)[C@]12NC(C)(C)C[C@@]1(C)C(=O)C1=C2c2c(c3c4n2C(C)(C)CC2=C4[C@@]4(CC(C)(C)N[C@@](C)(C4)C2=O)CC3(C)C)C(=O)C(C)(C)N1` (racemic) gave an inhibition of 37.2 ± 0.8% (acetic acid-induced writhing; mouse; intraperitoneal, 0.04 mg/kg, 0.5 h, writhes counted over 30 min).
For `COc1ccc2c(c1)c(CC(=O)OCC(=O)c1ccccc1)c(C)n2C(=O)c1ccc(Cl)cc1`, “latency of nociceptive response” read 16.4 ± 1.11 s (hot plate test; BALB/c mice; 50 mg/kg, 90 min).
For `CCC1CC2C(C)=CC3C(=O)CCCC3C=CC(C)=CC2C(=O)O1` (stereo not drawn), “soluble oligomeric Aβ reduction” read 23% (dot blot; 5XFAD transgenic mouse, cortex; oral, 30 mg/kg/day three times per week, 1 month; relative to: vehicle).
`Cc1nc(C)c(C=[N+]([O-])C(C)(C)C)nc1C` has an MEF2D level of 93.3% (immunofluorescence; MPTP-treated mice, dopaminergic neurons; dose not given; relative to: sham).
Under “FGF21 mRNA level”, `CC[C@H](C)[C@@H]1NC(=O)[C@H](Cc2ccc(O)cc2)NC(=O)[C@@H](N)CSSC[C@@H](C(=O)N2CCC[C@H]2C(=O)N[C@@H](CCCCNC(=O)COCCOCCNC(=O)COCCOCCNC(=O)CC[C@H](NC(=O)CC[C@H](NC(=O)CCCCCCCCCCCCCCCCC(=O)O)C(=O)O)C(=O)O)C(=O)NCC(N)=O)NC(=O)[C@H](CC(N)=O)NC(=O)[C@H](CCC(N)=O)NC1=O` is recorded as “increased” (RT-PCR; C57BL/6 mice, diet-induced obese, liver; subcutaneous, dose not given, 14 days).
For `CC(C)NCCCn1c(Sc2cc3c(cc2I)OCO3)nc2c(N)ncnc21`, the apoptotic cells was 17% (TUNEL; OCI-Ly7 xenograft, SCID mouse; 75 mg/kg/day).
With `CCSC(=S)N1CCN(C(=O)/C=C/c2coc3ccccc3c2=O)CC1` the EC50 was 355 ± 11.5 µg/mL (tomato spotted wilt virus; virus inactivation, half-leaf method; Nicotiana glutinosa; tested 31.25 to 500 µg/mL).
Under urinary osmolality, `CCOC(=O)c1cc2c(N)c(C(=O)OC)sc2nc1C` is recorded as “decreased” (Sprague-Dawley rats; subcutaneous, 25, 50, 100 mg/kg; relative to: vehicle).

A few entries again:
For `CC/C=C\C/C=C\C/C=C\C/C=C\C/C=C\CCCCOC(CC)C(=O)O` (stereo not drawn), “hepatic collagen change” read -32% (APOE*3Leiden.CETP mice, high-fat/cholesterol diet; dose not given, 20 weeks; relative to: control).
For `CCOP(=O)(CC(=O)Nc1ccc(S(=O)(=O)N(CC(N)=O)c2ccc(N(CC(N)=O)S(=O)(=O)c3ccc(OC)cc3)c3ccccc23)cc1)OCC`, “HO-1 protein level” read “increased” (Western blot; APP/PS1 mice, hippocampus and frontal cortex; 40 mg/kg; relative to: untreated APP/PS1 mice).
For `Cc1sc2ncn(CC(=O)N3CCCC3)c(=O)c2c1-c1cccc(Br)c1`, “γ3 conductance level area” read 7% (NMDA receptor, mouse; single-channel current, outside-out patch; cortical neurons; 50 µM, with: Ca2+ 0.5 mM).
`C=C(c1ccc(C(=O)O)c(F)c1)c1cc2c(cc1C)C(C)(C)C=CC2(C)C`: “log2 fold change” -0.33 (RNA sequencing, measured: Upp1; rat, brain; dose not given, 24 h; relative to: vehicle).
`Cc1cc(=O)[nH]c2ccc(OCCCC(=O)N3CCN(C)CC3)cc12` — result for “contraction force increase”: 15 ± 3% (rat, isolated spontaneously beating atria; 100 µM; relative to: baseline).
`CN1C[C@H](c2cccc(C(F)(F)F)c2)[C@@H](C(=O)Nc2ccccc2F)C1=O`: herbicidal activity “active” (whole plants; concentration not given).
Under “heart rate change”, `CCOCc1nc(O)c(-c2nnc(Cc3ccc(Cl)cn3)o2)c(O)c1-c1c(OC)cccc1OC` is recorded as -5% (renal hypertensive rat; oral, 0.1 mg/kg twice daily, day 7, trough; relative to: vehicle).
